Assay results collected from several papers.
Every numbered part comes from another study and shows a few of its results, in no order.

Set 1
Target: RNA binding protein fox-1 homolog 2, RRM domain, GST-SBP tag (RBFOX2, Homo sapiens, UniProt O43251-10, residues 100-194)
Technique: RNA Bind-n-Seq
Molecule type: RNA
Matrix: in vitro
Concentration: 365 nM
Setting: natural RNA segment, single round, ends assumed
Baseline: no-protein control
Reading: higher = stronger binding
Endpoint: RBNS enrichment (R)
Construct (chain): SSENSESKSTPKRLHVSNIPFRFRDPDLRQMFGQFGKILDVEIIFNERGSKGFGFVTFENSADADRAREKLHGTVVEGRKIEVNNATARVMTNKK
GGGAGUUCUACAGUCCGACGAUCAAGCUGCCCCCGGCUGCAGCCCAGGCCAUGGACAUGUGCACCAGUAUGUACCUGCAGGCAUGGGGGGGAGGGGGGCGUGUUUCUGGGCCUGCCCCAGACACUGCCCUUGGUGGAAUUCUCGGGUGCCAA: 0.849
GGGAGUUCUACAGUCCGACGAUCGAGACAUCUCCUUCCACCAUUCCCCACUUCUGCCACCUGCUGCUCUUCUCUGUCCUUAGUUGUGAGCUUCUCCAUGCUGUGCCAAUGGCUAGCCUUUUCUACACCCUCUUUGGAAUUCUCGGGUGCCAA: 1.32
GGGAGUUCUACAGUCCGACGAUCGGGUUUUUUUCUGCCUAAGUUUUACCUGUUUCACCAGUGUUUCAGCCCUUGACUGCCCCUCCUAUGCUGCUUCCAAAAGUAAUAGUGUGAUAAGAUUUUUACCUUCCUUUUGGAAUUCUCGGGUGCCAA: 0.692
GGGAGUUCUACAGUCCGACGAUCCCCCCGGCAUGGCUCCAGGUGGCCUGGUGACUCCAUGAUGGACGAUCUUGCUCCCAGGACCUGCCUCUUCCCAGGCUUCCUGGGGAAGAGUUGUACGCCCAGGCAACAAGUGGAAUUCUCGGGUGCCAA: 0.453
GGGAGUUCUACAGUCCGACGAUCUAUUCUGCCCUUGCUCUGUGUCAUCUCAGUCAUUUGACUUAGAAAGUGCCCUUCAAAAGGACCCUGUUCACUGCUGCACUUUUCAAUGAAUUAAAAUUUAUUUCUGUUCUUGGAAUUCUCGGGUGCCAA: 0.342
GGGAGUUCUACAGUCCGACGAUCUCUGGAGCAGCUGUGGCUUCCCCGUGGCUGCUUGGUGACAUGGAUUAGCGCUACGUGGGCUGCAGCAUUUGGGAUCCAGGCUACCUAGAGGGGCAUCGGGCCAGGGAAAAUGGAAUUCUCGGGUGCCAA: 1.12
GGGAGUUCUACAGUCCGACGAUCAUGGUGCUAAGUUUUUACAGUUGUCUUAGCCCCAGUGGUUCUCAAGGUGGGGCUCCUGGCCCAGCAGCAGCAACUUGUUUGUUAGAAUGCAGACGCGCAGGCCCCACCUGUGGAAUUCUCGGGUGCCAA: 0.378
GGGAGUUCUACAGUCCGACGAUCUUAAUGAACUAUUGUUAAUUCUUCCUAUUUUAAUGAAUGACAUUGAACUGAAUUUUUUGUCUGUUAAAUGAACUUGAUAGCUAAUAAAAAGACAACUAGCCAUCAAAAUCUGGAAUUCUCGGGUGCCAA: 0.589

Set 2
Target: Histone acetyltransferase KAT6A, both winged helices, GST fusion (KAT6A, Homo sapiens, UniProt Q92794, residues 1-181)
Technique: protein binding microarray
Molecule type: double-stranded DNA, one strand shown
Matrix: in vitro
Concentration: not given
Setting: 8-mer, flanks averaged, mean of 2 arrays, mostly near background
Baseline: not given
Reading: higher = stronger binding
Endpoint: E-score
Construct (chain): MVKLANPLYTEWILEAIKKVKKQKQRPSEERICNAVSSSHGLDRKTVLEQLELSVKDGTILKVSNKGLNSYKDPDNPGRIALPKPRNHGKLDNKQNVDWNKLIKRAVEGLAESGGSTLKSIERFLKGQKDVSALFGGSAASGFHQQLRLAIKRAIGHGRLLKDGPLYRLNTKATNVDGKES
CAGTGACC: -0.131
GAGGTGAA: -0.0854
CCATGTTA: -0.0708
AGTGCGAC: 0.2
CGTAATGA: 0.0727
CAACCGTA: 0.111
GATCTCGA: 0.0841
ACCGAGGG: -0.0924
AAAAGTTG: -0.107
GAGAAACC: -0.0467
TTGGCCAA: -0.14
AAAGCAAG: -0.0805
GGCATTCA: 0.0381
GTTTATGA: -0.0075
CGAGCTCG: 0.0614
TCTCTAAA: -0.108
AAAAGATG: 0.00729
ATATCTCG: -0.088
CGGGGCTC: 0.0353
ATGATGGC: -0.147
AAGCGAAG: 0.114
CTACTTGC: -0.0609
AGACACTG: -0.143
ATTTCACG: 0.138
TGAAGTCA: -0.146

Set 3
Target: Interferon regulatory factor 7, full length, phosphomimetic (IRF7, Homo sapiens, UniProt Q92985, residues 1-503, S471D/S472D/S475D/S476D/S477D/S483D/S484D/S487D)
Technique: protein-binding microarray
Molecule type: double-stranded DNA, one strand shown
Matrix: in vitro
Concentration: 2200 nM top
Setting: 60-bp whole probe
Added: salmon DNA 0.4 mg/ml
Baseline: random background probes
Reading: higher = stronger binding
Endpoint: fitted relative affinity
All sequences stand within: GCCTAGCAC … GTCTTGATTCGCTTGACGCTGCTG
Target sequence (chain): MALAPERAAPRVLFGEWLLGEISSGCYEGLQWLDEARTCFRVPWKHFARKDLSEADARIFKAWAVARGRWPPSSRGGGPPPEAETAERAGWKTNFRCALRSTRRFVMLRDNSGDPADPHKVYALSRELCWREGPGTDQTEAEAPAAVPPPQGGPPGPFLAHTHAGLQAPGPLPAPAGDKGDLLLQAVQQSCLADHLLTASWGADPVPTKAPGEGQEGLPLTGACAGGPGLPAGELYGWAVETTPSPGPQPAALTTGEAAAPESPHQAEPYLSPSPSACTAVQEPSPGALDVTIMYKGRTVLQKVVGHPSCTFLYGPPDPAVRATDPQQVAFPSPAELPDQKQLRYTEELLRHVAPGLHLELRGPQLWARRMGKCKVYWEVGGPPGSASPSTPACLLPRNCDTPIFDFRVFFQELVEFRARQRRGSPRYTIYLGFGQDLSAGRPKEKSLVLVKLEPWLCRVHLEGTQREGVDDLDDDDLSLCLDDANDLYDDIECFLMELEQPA
GACGGACTGGACACTGGAGACGTGCTA: -0.829 z-score
TTAGATATCGGGTTCCGATTAGTGCTA: 0.498 z-score
TTAGGACTCCTTCTCCTTTAGTGCTAG: 0.786 z-score
TTAGGTTTCGATTATCGGTTAGTGCTA: 5.07 z-score
ACCATTTTTTTTCACTATTGGTGCTAG: 1.78 z-score
TTAGGTCTCCTTATTCTTTAGTGCTAG: 0.867 z-score
TTAGGTCTCGGGCTCGGTTAGTGCTAG: -0.142 z-score
CTAGGTATCGGGTTTCGGTTAGTGCTA: 3.78 z-score
GACGGACGGGACTTTCGGGACGTGCTA: 2.06 z-score
TTAGATCCCAGACTGGATTAGTGCTAG: 0.0825 z-score
TTAGATCTCGGACTGGGTTAGTGCTAG: 0.000582 z-score
GACGGACTGGGGGTTCGGGACGTGCTA: 0.0492 z-score
TTAGGGATCCTACTGCTTTAGTGCTAG: 0.019 z-score
GCCGATATCAGTTTCGAGACGTGCTAG: 3.96 z-score
TCATTAATAAGGTTTCCAACTGTGCTA: 0.082 z-score
TACGATATCGGGTTTCGAGACGTGCTA: 1.84 z-score
GACGGGATCCTACTGCTGACGTGCTAG: 0.224 z-score
GACGGACTGGTTATCCTGACGTGCTAG: -0.161 z-score
GGGCCAGCAGCCAGGTGGAGGTGCTAG: -1.78 z-score

Set 4
Target: Sal-like protein 4, full length isoform B (SALL4, Homo sapiens, UniProt Q9UJQ4-2, residues 1-616)
Technique: universal PBM
Molecule type: double-stranded DNA, one strand shown
Matrix: in vitro
Concentration: not given
Setting: 8-mer, flanks averaged, mean of replicates
Reading: higher = stronger binding
Endpoint: E-score
Construct (chain): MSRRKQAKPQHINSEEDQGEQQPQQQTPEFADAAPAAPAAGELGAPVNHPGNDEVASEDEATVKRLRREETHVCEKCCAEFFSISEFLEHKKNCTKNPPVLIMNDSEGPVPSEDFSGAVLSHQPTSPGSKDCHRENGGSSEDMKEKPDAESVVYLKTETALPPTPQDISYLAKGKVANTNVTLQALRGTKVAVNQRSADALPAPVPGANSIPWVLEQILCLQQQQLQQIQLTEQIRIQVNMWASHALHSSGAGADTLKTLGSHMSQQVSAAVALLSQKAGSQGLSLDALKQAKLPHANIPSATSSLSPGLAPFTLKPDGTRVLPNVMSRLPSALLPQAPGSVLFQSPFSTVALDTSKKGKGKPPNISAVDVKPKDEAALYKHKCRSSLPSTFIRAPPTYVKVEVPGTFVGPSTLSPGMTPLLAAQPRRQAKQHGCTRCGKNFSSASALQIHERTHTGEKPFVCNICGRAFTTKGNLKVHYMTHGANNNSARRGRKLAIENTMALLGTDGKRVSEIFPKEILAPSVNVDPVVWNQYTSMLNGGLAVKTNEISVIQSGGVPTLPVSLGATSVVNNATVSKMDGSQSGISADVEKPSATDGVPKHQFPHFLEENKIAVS
AGATTATG: 0.273
AAACACTG: 0.0419
CAGGCAGA: 0.00097
CGGATACC: -0.0849
AGATCCAC: 0.0308
ACAGAAAT: 0.284
TACGACCA: -0.0458
AAACCCGA: 0.148
GAGTGCTA: -0.11
AATGAAAT: 0.243
GGCGTGAC: -0.257
AGCCTAGG: -0.131
ACGACTAT: 0.166
GAGCGACA: -0.0913
ACTTCTTA: 0.167
ATGAGTAC: 0.208
CGTAAGGA: 0.0604
CCCTCGGC: -0.363
CAGGAGCG: -0.119
GGTGAGAA: -0.0157
AATTAAAA: 0.322
GACAGGGA: -0.239
CCACAAAC: 0.051
ATCCGTAA: -0.0384
AAAATACT: 0.28

Repeated from above (set 2):
CGGGGCTC: 0.0353
CGTAATGA: 0.0727
TGAAGTCA: -0.146
GAGAAACC: -0.0467
CAGTGACC: -0.131
CCATGTTA: -0.0708
AAAAGTTG: -0.107
GAGGTGAA: -0.0854
CTACTTGC: -0.0609
AAAGCAAG: -0.0805
GATCTCGA: 0.0841
